Experimental data collected from several papers.
Compare with care: the assays were run in different laboratories. Values joined by “and” are separate records of one study, mostly repeats; a detail may differ. ± marks the error that the study gave.

CC[C@H](C)[C@H](NC(=O)[C@H](Cc1ccccc1)NC(=O)[C@H](CCC(=O)O)NC(=O)[C@H](CCCNC(=N)N)NC(=O)[C@H](C)NC(=O)[C@H](C)NC(=O)[C@H](CCC(N)=O)NC(=O)[C@H](CCC(=O)O)NC(=O)[C@H](CCC(=O)O)NC(=O)[C@H](CC(C)C)NC(=O)[C@H](Cc1ccc(O)cc1)NC(=O)[C@H](CO)NC(=O)[C@H](CO)NC(=O)[C@@H](NC(=O)[C@H](CC(=O)O)NC(=O)[C@H](CO)NC(=O)[C@@H](NC(=O)[C@H](Cc1ccccc1)NC(=O)[C@@H](NC(=O)CNC(=O)[C@H](CCC(=O)O)NC(=O)[C@H](C)NC(=O)CCc1cnc[nH]1)[C@@H](C)O)[C@@H](C)O)C(C)C)C(=O)N[C@@H](C)C(=O)N[C@@H](Cc1c[nH]c2ccccc12)C(=O)N[C@@H](CC(C)C)C(=O)N[C@H](C(=O)N[C@@H](CCCCNc1c(NCCCCCN(O)C(=O)CCC(=O)NCCCCCN(O)C(=O)CCC(=O)NCCCCCN(O)C(C)=O)c(=O)c1=O)C(=O)NCC(=O)N[C@@H](CCCNC(=N)N)C(=O)N[C@@H](CCCCNc1c(NCCCCCN(O)C(=O)CCC(=O)NCCCCCN(O)C(=O)CCC(=O)NCCCCCN(O)C(C)=O)c(=O)c1=O)C(=O)NCC(=O)NCC(=O)N[C@@H](CO)C(=O)N[C@@H](CCCCNC(=O)COCCOCCNC(=O)COCCOCCNC(=O)CC[C@H](NC(=O)CCCCCCCCCCCCCCCCC(=O)O)C(=O)O)C(=O)O)C(C)C  fold potency loss (Glucagon-like peptide 1 receptor (GLP1R, Homo sapiens, UniProt P43220); agonist, CRE luciferase reporter; BHK cells; Zr-loaded DFO conjugate, together with: 1% HSA; reference: parent peptide): 2
COc1cccc(-n2nc3c4cc(Cl)ccc4[nH]cc-3c2=O)c1  efficacy (Gamma-aminobutyric acid receptor subunit alpha-6/beta-3, with delta subunit (Gabra6/Gabrb3, Rattus norvegicus, UniProt P30191+P63079); ion current, modulator, two-electrode voltage clamp; 1 µM, α6β3δ receptor, together with: GABA EC3-10): 118 ± 14.3%
[H]/N=C(/N)NCC(=O)O  normalised MST signal (Sodium- and chloride-dependent taurine transporter (SLC6A6, Homo sapiens, UniProt P31641, G62A); binding, microscale thermophoresis; 3.91 µM, room temperature, together with: 50 nM labelled protein; higher = more binding): -0.00644
O=C(COCC(F)F)Nc1ccc(C2CCCCC2)cc1  hepatic clearance (liver microsome stability; mouse liver microsomes; 1 µM): 83 mL/min/kg
Nc1nc2c(ncn2[C@@H]2O[C@H](COP(=O)(O)O)[C@@H](O)[C@H]2O)c(=O)[nH]1  reaction rate (GUK1 (Homo sapiens, UniProt Q16774, E72A); enzyme activity, NADH-coupled; 15.62 µM): 0.371 s⁻¹ and 0.197 s⁻¹ and -0.654 s⁻¹
Cc1cccc(N2CC(C(=O)O)CC2=O)c1 (stereo not shown)  fold enrichment (Transcription intermediary factor 1-beta, PHD-bromodomain (TRIM28, Homo sapiens, UniProt Q13263); binding, affinity selection mass spectrometry; reference: other proteins in batch): 0.957
C[C@@H]1CCO[C@H]2Cn3cc(C(=O)NCc4ccc(F)cc4F)c(=O)c(O)c3C(=O)N12  inhibition (Solute carrier family 22 member 3 (SLC22A3, Homo sapiens, UniProt O75751); transporter uptake, inhibitor, refers to: [14C]MPP+ uptake; MDCK-II transfected with OCT3; up to 100 µM, together with: [14C]MPP+ 2 µM): no inhibition
O=c1nc(SCc2cc(F)cc(C(F)(F)F)c2)nc(SCc2ccc3nc(Cl)ccc3c2)[nH]1  ATP hydrolysis rate (DNA topoisomerase 2-alpha (TOP2A, Homo sapiens, UniProt P11388); ATPase activity; 31.25 µM, together with: ATP 0.5 mM): 1.42 µM/min and 2.03 µM/min
CC1=C(/C=C/C(C)=C/C=C/C(C)=C/C=O)C(C)(C)CCC1  relative kon (Rhodopsin (RHO, Bos taurus, UniProt P02699, I189A); retinal entry, Trp FRET; lipid bicelles; 28 °C, I189A mutant; reference: wild-type rhodopsin): 1.28 ± 0.13
C#Cc1cc(-c2cc(Nc3nc(N[C@@H](C)c4ccc(F)cn4)ncc3Cl)n[nH]2)ccc1C=O  inhibition (High affinity nerve growth factor receptor (NTRK1, Homo sapiens, UniProt P04629, G595R); enzyme activity, inhibitor; 0.2 µM): 97.5%
O=C(NCCc1cccnc1)c1ccc(C2CCCCC2)cc1  hepatic clearance (liver microsome stability; human liver microsomes; 1 µM, without NADPH): 3.9 mL/min/kg
Cc1cc(NC(=O)CCC(=O)O)nn1C  Kd (Ubiquitin carboxyl-terminal hydrolase 3, ZnF-UBD domain (USP3, Homo sapiens, UniProt Q9Y6I4)): 201 µM
C=CC(=O)N1CCC(COCC(=O)N2CCN(c3nc(-c4cnc(N)nc4C(F)F)nc(N4CCOC[C@@H]4C)n3)CC2)CC1  remaining binding (Serine/threonine-protein kinase 36 (STK36, Homo sapiens, UniProt Q9NRP7); KINOMEscan; 1 µM): 98%

A few entries again:
Nc1nc2c(ncn2[C@@H]2O[C@H](COP(=O)(O)O)[C@@H](O)[C@H]2O)c(=O)[nH]1  reaction rate (GUK1 (Homo sapiens, UniProt Q16774, E72A); enzyme activity, NADH-coupled; 15.62 µM): 0.371 s⁻¹ and 0.197 s⁻¹ and -0.654 s⁻¹
C[C@@H]1CCO[C@H]2Cn3cc(C(=O)NCc4ccc(F)cc4F)c(=O)c(O)c3C(=O)N12  inhibition (Solute carrier family 22 member 3 (SLC22A3, Homo sapiens, UniProt O75751); transporter uptake, inhibitor, refers to: [14C]MPP+ uptake; MDCK-II transfected with OCT3; up to 100 µM, together with: [14C]MPP+ 2 µM): no inhibition
